Assay results from different studies.
Lines come from different studies, so protocols differ. ± gives the spread as reported.
BDKRB2: B2 bradykinin receptor (BDKRB2, Homo sapiens, UniProt P30411)
Sequence of UniProt P30411 (whole entry, looked up): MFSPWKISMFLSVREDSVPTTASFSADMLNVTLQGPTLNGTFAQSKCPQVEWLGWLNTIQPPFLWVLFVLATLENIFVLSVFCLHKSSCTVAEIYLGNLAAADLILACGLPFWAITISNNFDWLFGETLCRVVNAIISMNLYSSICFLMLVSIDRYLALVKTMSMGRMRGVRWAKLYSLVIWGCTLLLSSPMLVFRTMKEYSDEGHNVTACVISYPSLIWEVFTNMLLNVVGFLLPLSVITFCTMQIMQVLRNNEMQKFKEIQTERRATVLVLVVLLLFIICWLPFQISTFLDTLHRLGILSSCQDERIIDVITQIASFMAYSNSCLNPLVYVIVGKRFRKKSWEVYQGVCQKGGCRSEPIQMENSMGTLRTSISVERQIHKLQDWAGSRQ
BCHE: Cholinesterase (BCHE, Homo sapiens, UniProt P06276)
Sequence of UniProt P06276 (whole entry, looked up): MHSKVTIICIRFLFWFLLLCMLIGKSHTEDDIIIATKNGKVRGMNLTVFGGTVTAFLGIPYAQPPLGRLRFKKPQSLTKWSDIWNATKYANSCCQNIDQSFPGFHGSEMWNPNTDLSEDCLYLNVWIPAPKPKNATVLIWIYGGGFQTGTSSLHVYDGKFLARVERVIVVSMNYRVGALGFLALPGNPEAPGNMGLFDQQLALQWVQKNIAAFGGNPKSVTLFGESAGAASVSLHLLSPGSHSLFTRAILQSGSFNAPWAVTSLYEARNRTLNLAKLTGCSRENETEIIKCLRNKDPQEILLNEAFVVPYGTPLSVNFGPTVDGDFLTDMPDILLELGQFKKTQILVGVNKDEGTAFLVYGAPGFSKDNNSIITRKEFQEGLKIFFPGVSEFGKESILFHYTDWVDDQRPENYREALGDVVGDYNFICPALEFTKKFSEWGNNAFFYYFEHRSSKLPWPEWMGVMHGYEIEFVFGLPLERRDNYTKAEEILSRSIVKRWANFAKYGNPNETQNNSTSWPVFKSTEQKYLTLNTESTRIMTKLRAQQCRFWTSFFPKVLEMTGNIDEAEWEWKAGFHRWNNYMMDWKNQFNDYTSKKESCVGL
Sequence of UniProt Q5S007 (whole entry, unmodified, looked up): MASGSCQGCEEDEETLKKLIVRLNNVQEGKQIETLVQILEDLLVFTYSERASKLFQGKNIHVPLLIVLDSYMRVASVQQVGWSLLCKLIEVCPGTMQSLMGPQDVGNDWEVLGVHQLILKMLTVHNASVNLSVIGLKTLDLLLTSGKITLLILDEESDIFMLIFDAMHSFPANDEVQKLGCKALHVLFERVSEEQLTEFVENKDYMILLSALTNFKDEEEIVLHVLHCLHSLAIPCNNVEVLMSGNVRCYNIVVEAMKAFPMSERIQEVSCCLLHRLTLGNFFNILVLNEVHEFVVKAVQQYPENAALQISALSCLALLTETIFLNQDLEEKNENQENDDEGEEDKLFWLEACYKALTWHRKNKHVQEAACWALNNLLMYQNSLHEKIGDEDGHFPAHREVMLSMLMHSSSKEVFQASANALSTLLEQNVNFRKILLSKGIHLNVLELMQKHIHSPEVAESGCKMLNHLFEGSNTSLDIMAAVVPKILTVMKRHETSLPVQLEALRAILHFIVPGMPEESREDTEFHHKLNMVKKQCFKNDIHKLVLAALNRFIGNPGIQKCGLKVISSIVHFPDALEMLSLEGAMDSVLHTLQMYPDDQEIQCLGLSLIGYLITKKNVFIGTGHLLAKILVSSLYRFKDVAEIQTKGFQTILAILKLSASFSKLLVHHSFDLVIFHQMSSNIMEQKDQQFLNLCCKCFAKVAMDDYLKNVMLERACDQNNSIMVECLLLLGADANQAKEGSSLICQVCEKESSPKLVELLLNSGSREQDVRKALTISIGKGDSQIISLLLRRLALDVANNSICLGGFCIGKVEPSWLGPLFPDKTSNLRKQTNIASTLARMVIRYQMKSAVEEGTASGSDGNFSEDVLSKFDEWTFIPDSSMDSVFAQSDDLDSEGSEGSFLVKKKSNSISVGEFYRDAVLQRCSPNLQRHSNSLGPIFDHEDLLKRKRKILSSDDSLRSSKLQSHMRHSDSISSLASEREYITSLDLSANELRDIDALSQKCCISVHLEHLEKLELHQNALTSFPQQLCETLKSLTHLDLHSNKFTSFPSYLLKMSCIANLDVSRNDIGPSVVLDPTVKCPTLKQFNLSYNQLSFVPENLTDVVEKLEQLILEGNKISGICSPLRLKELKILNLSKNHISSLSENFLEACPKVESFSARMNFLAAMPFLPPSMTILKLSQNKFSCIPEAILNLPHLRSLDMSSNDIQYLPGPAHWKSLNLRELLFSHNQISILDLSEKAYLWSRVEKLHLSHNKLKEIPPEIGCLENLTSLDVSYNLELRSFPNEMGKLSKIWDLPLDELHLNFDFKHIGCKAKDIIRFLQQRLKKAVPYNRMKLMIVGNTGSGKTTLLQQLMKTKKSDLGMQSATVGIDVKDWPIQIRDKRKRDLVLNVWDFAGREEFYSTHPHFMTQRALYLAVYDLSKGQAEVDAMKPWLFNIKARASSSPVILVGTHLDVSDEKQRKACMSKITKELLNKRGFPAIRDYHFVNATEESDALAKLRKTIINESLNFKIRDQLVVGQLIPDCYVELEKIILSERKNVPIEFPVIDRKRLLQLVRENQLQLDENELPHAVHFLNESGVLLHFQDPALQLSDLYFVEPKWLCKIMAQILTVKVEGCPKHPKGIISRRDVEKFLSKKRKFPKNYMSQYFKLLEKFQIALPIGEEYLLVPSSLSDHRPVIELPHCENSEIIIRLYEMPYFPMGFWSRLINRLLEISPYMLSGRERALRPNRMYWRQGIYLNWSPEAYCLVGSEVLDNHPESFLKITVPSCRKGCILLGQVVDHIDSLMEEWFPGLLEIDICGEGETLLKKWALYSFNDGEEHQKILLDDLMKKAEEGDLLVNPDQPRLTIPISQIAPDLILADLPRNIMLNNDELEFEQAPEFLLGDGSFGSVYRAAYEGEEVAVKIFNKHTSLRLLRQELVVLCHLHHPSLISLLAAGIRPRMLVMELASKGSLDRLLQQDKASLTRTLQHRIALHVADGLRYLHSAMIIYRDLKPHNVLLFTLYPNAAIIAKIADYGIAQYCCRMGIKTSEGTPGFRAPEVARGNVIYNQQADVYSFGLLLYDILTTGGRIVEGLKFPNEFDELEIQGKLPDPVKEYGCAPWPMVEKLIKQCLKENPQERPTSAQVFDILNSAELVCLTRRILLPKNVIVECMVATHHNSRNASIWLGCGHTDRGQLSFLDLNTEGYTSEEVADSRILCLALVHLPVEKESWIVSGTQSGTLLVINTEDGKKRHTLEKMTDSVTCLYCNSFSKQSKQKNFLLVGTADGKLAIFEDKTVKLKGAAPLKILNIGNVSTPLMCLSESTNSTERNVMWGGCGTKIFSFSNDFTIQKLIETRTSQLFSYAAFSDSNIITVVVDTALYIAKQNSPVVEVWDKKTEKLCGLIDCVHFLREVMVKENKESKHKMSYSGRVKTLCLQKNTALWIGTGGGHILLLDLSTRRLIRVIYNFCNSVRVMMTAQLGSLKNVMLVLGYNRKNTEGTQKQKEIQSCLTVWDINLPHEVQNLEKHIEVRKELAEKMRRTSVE
Sequence of UniProt Q7Z7M1 (whole entry, looked up): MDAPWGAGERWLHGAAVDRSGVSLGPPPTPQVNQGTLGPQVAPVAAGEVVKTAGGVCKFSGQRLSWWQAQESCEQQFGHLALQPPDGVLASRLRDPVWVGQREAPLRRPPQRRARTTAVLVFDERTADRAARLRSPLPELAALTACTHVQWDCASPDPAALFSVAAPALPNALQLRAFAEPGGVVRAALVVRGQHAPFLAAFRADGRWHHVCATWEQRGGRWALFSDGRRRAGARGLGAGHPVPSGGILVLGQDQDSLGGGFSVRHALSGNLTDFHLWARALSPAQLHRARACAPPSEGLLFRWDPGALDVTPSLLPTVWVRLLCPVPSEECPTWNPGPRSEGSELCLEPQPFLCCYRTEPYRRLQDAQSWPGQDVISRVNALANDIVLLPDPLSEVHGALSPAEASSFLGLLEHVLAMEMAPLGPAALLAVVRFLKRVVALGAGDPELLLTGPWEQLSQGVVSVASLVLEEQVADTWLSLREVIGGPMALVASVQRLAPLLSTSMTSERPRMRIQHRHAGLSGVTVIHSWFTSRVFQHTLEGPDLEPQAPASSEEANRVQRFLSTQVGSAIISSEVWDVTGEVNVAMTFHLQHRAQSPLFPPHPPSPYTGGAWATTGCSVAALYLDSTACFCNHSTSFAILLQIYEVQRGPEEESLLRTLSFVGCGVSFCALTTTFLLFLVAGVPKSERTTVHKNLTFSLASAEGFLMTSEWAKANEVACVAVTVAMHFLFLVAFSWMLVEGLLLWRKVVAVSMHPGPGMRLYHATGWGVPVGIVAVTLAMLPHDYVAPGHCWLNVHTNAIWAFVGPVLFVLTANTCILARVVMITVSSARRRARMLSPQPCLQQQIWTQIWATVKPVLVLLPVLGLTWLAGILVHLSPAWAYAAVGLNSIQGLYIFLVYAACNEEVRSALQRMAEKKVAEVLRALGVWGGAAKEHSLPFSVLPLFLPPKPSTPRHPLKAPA
Sequence of UniProt P40926 (whole entry, looked up): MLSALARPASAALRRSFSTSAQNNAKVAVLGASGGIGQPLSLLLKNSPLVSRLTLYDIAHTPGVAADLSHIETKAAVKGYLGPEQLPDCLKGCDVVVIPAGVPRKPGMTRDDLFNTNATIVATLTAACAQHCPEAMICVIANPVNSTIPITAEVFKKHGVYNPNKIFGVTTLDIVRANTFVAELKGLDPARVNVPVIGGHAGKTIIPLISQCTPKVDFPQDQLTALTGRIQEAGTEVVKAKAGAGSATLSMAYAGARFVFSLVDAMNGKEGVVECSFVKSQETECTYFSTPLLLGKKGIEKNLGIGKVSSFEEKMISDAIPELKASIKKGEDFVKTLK
Sequence of UniProt P41247 (whole entry, looked up): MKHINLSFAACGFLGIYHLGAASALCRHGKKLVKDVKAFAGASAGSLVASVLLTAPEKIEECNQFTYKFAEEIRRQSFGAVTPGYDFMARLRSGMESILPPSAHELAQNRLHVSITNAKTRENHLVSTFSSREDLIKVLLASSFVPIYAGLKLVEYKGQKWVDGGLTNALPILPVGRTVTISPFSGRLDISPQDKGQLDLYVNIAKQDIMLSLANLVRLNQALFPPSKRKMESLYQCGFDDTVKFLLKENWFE

Structure (SMILES)	tested on	assay	test system	setting	how to read	measurement	value
COc1ccc(N2C(=O)N(c3c(C)cccc3Cl)Cc3cnc(Nc4ccc(C5CCN(C)CC5)cc4OC)nc32)nc1	Leucine-rich repeat serine/threonine-protein kinase 2 (LRRK2, Homo sapiens, UniProt Q5S007, G2019S)	kinase activity, inhibitor		0.5 µM, complex with -G2019S		inhibition	50%
N=C(N)NC(=N)Nc1cccc(Cl)c1	Plasmodium falciparum		HB3			IC50	7.94 µM
Oc1ccc2c3c1O[C@H]1[C@@H](O)CC[C@@]4(O)[C@@H](C2)N(CC2CCC2)CC[C@]314	Adhesion G protein-coupled receptor D2 (ADGRD2, Homo sapiens, UniProt Q7Z7M1)	β-arrestin recruitment, TANGO luminescence, measured: GPR144		concentration not given	reference: basal luminescence	log2 fold change	1.96
O=C(Nc1cccnn1)N1CCC(=Cc2cccc(Oc3ccc(C(F)(F)F)cn3)c2)CC1	BDKRB2	binding		10 µM, together with: [3H]bradykinin		inhibition	2%
CN(C)CCOC(C)(c1ccccc1)c1ccccn1 (stereo not drawn)	Plasmodium falciparum		W2			IC50	3.98 µM
CN(C(=O)n1cnc(-c2ccc[n+]([O-])c2)c1)C1CCCCC1	Type-1 angiotensin II receptor (AGTR1, Homo sapiens, UniProt P30556)	radioligand binding, inhibitor		50 µM		inhibition	-1%
C[C@@H](C1=C(CCN(C)C)Cc2ccccc21)c1ccccn1.O=C(O)/C=C\C(=O)O	BCHE	inhibitor, fluorescence				efficacy	-83.8 ± 8.6%
O=C(c1ccc(Cl)cc1)N1CCN2C(=O)N(OC(=O)N3CCOc4ccccc43)C(=O)C2C1 (stereo not drawn)	Patatin-like phospholipase domain-containing protein 4 (PNPLA4, Homo sapiens, UniProt P41247)	enzyme activity, inhibitor, MS-based ABPP	SW-620 in situ	10 µM, 2 h, 37 °C	reference: compound over DMSO, lower = stronger inhibition	median ratio	0.95
COc1ccc2c(c1)CN(C(=O)CCN1CCC(Cc3ccccc3)CC1)CCS2.COc1ccc2c(c1)CN(C(=O)CCN1CCC(Cc3ccccc3)CC1)CCS2.O=C(O)/C=C/C(=O)O	BCHE			concentration not given, Triton		efficacy	-74.1 ± 5.71%
O=C(Nc1cnccc1Cl)N1CCN(Cc2ccc3c(c2)OC(F)(F)O3)CC1	BDKRB2	binding		50 µM, together with: [3H]bradykinin		inhibition	1%
Cl.Cl.Clc1ccccc1CNCC1CCC(CNCc2ccccc2Cl)CC1 (stereo not drawn)	BCHE	inhibitor, fluorescence				efficacy	-72.8 ± 15.4%
C[C@H]1CN(c2n[nH]c3nc(N[C@H]4CC[C@H](NS(=O)(=O)CCC(F)(F)F)CC4)ncc23)CCO1	Malate dehydrogenase, mitochondrial (MDH2, Homo sapiens, UniProt P40926)	inhibitor, Kinobeads competition profiling		20 µM	reference: vehicle	relative abundance	1.19

A few entries again:
Structure (SMILES)	tested on	assay	test system	setting	how to read	measurement	value
CN(C)CCOC(C)(c1ccccc1)c1ccccn1 (stereo not drawn)	Plasmodium falciparum		W2			IC50	3.98 µM
CN(C(=O)n1cnc(-c2ccc[n+]([O-])c2)c1)C1CCCCC1	Type-1 angiotensin II receptor (AGTR1, Homo sapiens, UniProt P30556)	radioligand binding, inhibitor		50 µM		inhibition	-1%
